Experimental data collected from several papers.
“And” joins repeats or separate records; there may be more than shown. ± marks the error that the study gave.
DCPS: m7GpppX diphosphatase (DCPS, Homo sapiens, UniProt Q96C86)
Kir3.1/Kir3.4: Kir3.1/Kir3.4 (Homo sapiens, UniProt P48544+P48549)
pyrD: Dihydroorotate dehydrogenase (quinone) (pyrD, Acinetobacter baumannii, UniProt B7GZW7)
AKR1B1: Aldo-keto reductase family 1 member B1 (AKR1B1, Homo sapiens, UniProt P15121)
TOP2A: DNA topoisomerase 2-alpha (TOP2A, Homo sapiens, UniProt P11388)
T1: riboswitch RNA yjdF aptamer domain (Bacillus subtilis); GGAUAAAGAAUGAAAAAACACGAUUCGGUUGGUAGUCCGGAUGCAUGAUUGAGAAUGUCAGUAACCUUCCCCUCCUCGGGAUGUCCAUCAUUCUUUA

| SMILES | target | assay | system | conditions | how to read | quantity | value |
| --- | --- | --- | --- | --- | --- | --- | --- |
| Cn1c[n+]([C@@H]2O[C@H](COP(=O)(O)OP(=O)([O-])OP(=O)(O)OC[C@H]3O[C@@H](n4cnc5c(=O)[nH]c(N)nc54)[C@H](O)[C@@H]3O)[C@@H](O)[C@H]2O)c2nc(N)[nH]c(=O)c21 | DCPS | substrate, HPLC |  | concentration not given, 15 min |  | hydrolysis | 67 ± 7% |
| Nc1ccn([C@H]2C[C@H](O)[C@@H](COP(=O)(O)OP(=O)(O)OP(=O)(O)O)O2)c(=O)n1 | DNA polymerase beta (POLB, Homo sapiens, UniProt P06746) | nucleotide incorporation, substrate, steady-state kinetics |  | together with: undamaged primer-template |  | Km | 0.14 µM |
| CC1=NN(c2ccc(C)cc2)C(=O)C1=NNc1ccc(S(N)(=O)=O)cc1 | bovine α-glucosidase | enzyme activity, inhibitor, glucose oxidase |  | 50 µg/mL, together with: maltose |  | inhibition | 32% |
| O=C(COc1ccc(Cl)cc1Cl)Nc1cc(C2CCC2)nn1C1CCC(F)(F)CC1 | Kir3.1/Kir3.4 | thallium flux, activator | HEK293 |  | reference: standard compound | Emax | < 10% |
| N[C@@H](CO)C(=O)Nc1ccc2ccccc2c1 | rat aminopeptidase III | substrate |  | concentration not given, pH 7.0 |  | hydrolysis | inactive |
| Cc1cc(Nc2ccc(S(F)(F)(F)(F)F)cc2)n2ncnc2n1 | pyrD | enzyme activity, inhibitor, colorimetric HTS, item: DCIP reduction |  | 3 µM | direction not given | robust Z-score | 23.8 |
| Cc1ccc(/C=C2\SC(=O)N(Cc3nc4ccccc4s3)C2=O)cc1 | AKR1B1 | enzyme activity, inhibitor |  |  |  | Hill slope | -0.562 |
| O=C(Nc1ccccc1OS(=O)(=O)c1ccc([N+](=O)[O-])cc1)c1ccc2ncccc2c1 | P2X purinoceptor 4 (P2RX4, Homo sapiens, UniProt Q99571) | calcium mobilization | MCF7 stably transfected | 100 µM, together with: ATP 100 µM |  | fluorescence increase | 76.3 ± 0.57% |
| C=CC(=O)N1CCN(c2nc(OC[C@@H]3CCCN3C)nc3c(F)c(-c4nc(N)cc(C)c4C(F)(F)F)c(Cl)cc23)[C@@H](C)C1 | GTPase KRas, GDP-bound (KRAS, Homo sapiens, UniProt P01116, C118S/G12C) | covalent inhibitor |  |  |  | kinact/KI | 1.1e+06 M⁻¹ s⁻¹ |
| O=c1nc(SCc2ccc(C(F)(F)F)cc2)nc(SCc2csc3ccc(Cl)cc23)[nH]1 | TOP2A | decatenation |  | 7.8 µM, replicate 2 |  | decatenated DNA | 94.4% |
| Cc1cc(Nc2ccc(C(C)C)cc2)n2ncnc2n1 | pyrD | enzyme activity, inhibitor, colorimetric HTS, item: DCIP reduction |  | 3 µM | direction not given | robust Z-score | 15 |
| c1ccc(-c2n[nH]cc2-c2ccnc3ccccc23)nc1 | Cyclin-dependent kinase 1 (CDC28, Candida albicans, UniProt P43063) | kinase binding, competitor, MIB/MS competition, item: CDC28 | Candida albicans cell lysate | 100 nM | reference: DMSO | log2 fold change | 1.38 |
| CCCCC[C@H](O)/C=C/[C@H]1C(=O)C[C@H](O)[C@@H]1C/C=C\CCCC(=O)O | PTGDR (Homo sapiens, UniProt Q13258, D72N) | agonist |  | 0.1562 µM |  | activation | 89.2% |
| C=CC(=O)N1CCC[C@@H](n2nc(-c3ccc(Oc4ccccc4)cc3)c3c(N)ncnc32)C1 | Insulin receptor (INSR, Homo sapiens, UniProt P06213) |  |  | 1 µM |  | remaining activity | 195% |
| CN(C)C(=O)C(CCN1CCC(O)(c2ccc(Cl)cc2)CC1)(c1ccccc1)c1ccccc1 | Calcium-activated potassium channel subunit alpha-1, with LRRC26 γ1 subunit (KCNMA1, Homo sapiens, UniProt Q12791) | BK current, inside-out patch clamp | excised membrane patch | 30 µM, γ1 subunit coexpressed, together with: nominally 0 Ca2+ cytosolic |  | effective gating valence | 1.18 elementary charges |
| O=S(=O)(O)C1CCNCC1 | SLC6A6 (Homo sapiens, UniProt P31641, G62A) | binding, microscale thermophoresis |  | 125 µM, room temperature, together with: 50 nM labelled protein | higher = more binding | normalised MST signal | -0.0218 |
| CCc1cc(NC(=O)COc2cccc(Cl)c2Cl)n(CC(F)(F)F)n1 | Kir3.1/Kir3.4 | thallium flux, activator | HEK293 |  | reference: standard compound | Emax | 75% |
| O=C(C[C@@H](C(F)F)n1ccc(F)n1)N1CCC(O)(Cn2cnc3c(cnn3-c3ccc(F)cc3)c2=O)CC1 | USP7 (Homo sapiens, UniProt Q93009, V517F) | isothermal titration calorimetry |  | concentration not given, USP7 V517F |  | binding enthalpy | -17.3 ± 2.4 kcal/mol |
| COc1cc(O)c2c(c1)oc(=O)c1c3cc(O)c(O)cc3oc21 | MAL12 (Saccharomyces cerevisiae S288c, UniProt P53341) | fluorescence quenching |  | concentration not given, 304 K |  | number of binding sites | 1.1 |
| O=c1nc(SCc2cc(F)cc(C(F)(F)F)c2)nc(SCc2ccc3nc(Cl)ccc3c2)[nH]1 | TOP2A | ATPase activity |  | 15.6 µM, together with: ATP 0.75 mM |  | ATP hydrolysis rate | 2.27 µM/min and 1.62 µM/min |
| CC1=NNC(=S)NC(=O)C1/N=N/c1ccc(S(N)(=O)=O)cc1 (stereo not shown) | bovine α-glucosidase | enzyme activity, inhibitor, glucose oxidase |  | 200 µg/mL, together with: maltose |  | inhibition | 35.4% |
| c1coc(-c2n[nH]cc2-c2ccnc3ccccc23)c1 | Serine/threonine-protein kinase CLA4 (CLA4, Candida albicans, UniProt O14427) | kinase binding, MIB/MS competition | Candida albicans lysate | 1 µM | reference: DMSO, negative = stronger binding | log2 fold change | -0.04 |
| O=C(COc1cc(Cl)ccc1Cl)Nc1cc(C2CCC2)nn1CC(F)(F)F | Kir3.1/Kir3.4 | activator, thallium flux | HEK293 | concentration not given |  | activity | inactive |

| SMILES | target | assay | system | conditions | how to read | quantity | value |
| --- | --- | --- | --- | --- | --- | --- | --- |
| NCCS(=O)(=O)O | SLC6A6 (Homo sapiens, UniProt P31641, S402A) | binding, microscale thermophoresis |  | 244 nM, room temperature, together with: 50 nM labelled protein | higher = more binding | normalised MST signal | -0.0599 |
| CC(C)OCCn1c(=S)[nH]c(=O)c2[nH]ccc21 | Myeloperoxidase (MPO, Homo sapiens, UniProt P05164) | H2O2 consumption, inhibitor, H2O2 electrode |  | 0.226 µM, 0 s |  | H2O2 concentration | -33.1 µM |
| COc1cc(F)ccc1-c1ncnc(Nc2cccc(C[S@](C)(=N)=O)c2)n1 | PIP5K1A (Homo sapiens, UniProt Q99755) | kinase activity |  | 10 µM, together with: 10 µM ATP |  | remaining activity | 96% |
| O=C(CN1C(=O)S/C(=C\c2ccc(F)cc2)C1=O)c1ccc([N+](=O)[O-])cc1 | AKR1B1 | enzyme activity, inhibitor |  |  |  | Hill slope | -0.598 |
| Cc1cc(Nc2ccc(S(F)(F)(F)(F)F)cc2)n2nc(C(C)(F)F)nc2n1 | pyrD | enzyme activity, inhibitor, colorimetric HTS, item: DCIP reduction |  | 3 µM | direction not given | robust Z-score | 22.2 |
| Nc1ncnc2c1ncn2[C@@H]1O[C@H](COP(=O)(O)CP(=O)(O)OP(=O)(O)O)[C@@H](O)[C@H]1O | P2X purinoceptor 1 (P2RX1, Homo sapiens, UniProt P51575, E122A) | saturation binding |  | 52 nM |  | specific binding | 606 corrected cpm and 372 corrected cpm and 594 corrected cpm |
| [O-][S+]1CCCCS1 (stereo not shown) | SOD1 (Homo sapiens, UniProt P00441, G94A) | LC-MS | human whole blood | 500 µM, 1 h, 37 °C |  | SOD1 dimer fraction | 59% |
| C[C@]12C[C@H](O)[C@H]3[C@@H](CCC4=CC(=O)CC[C@@]43C)[C@@H]1CC[C@@H]2C(=O)CO | CYP11B1 (Homo sapiens, UniProt P15538) | stopped-flow | nanodiscs | together with: excess cyclodextrin |  | koff | > 6 s⁻¹ |
| CN1C(=O)/C(=C/c2cc(F)c(O)c(F)c2)N=C1/C=N/O | T1, riboswitch RNA yjdF aptamer domain (Bacillus subtilis) | fluorescence titration |  |  |  | Kd | 4.5 µM |
| Cc1cc2c(cc1N1C(=O)c3cccc4c(Cl)ccc(c34)C1=O)n(C)c(=O)n2C | CREBBP (Homo sapiens, UniProt Q92793) |  |  | 10 µM |  | delta Tm | 1.3 °C |
| CC1CCCN(C(=O)c2cc3ncccn3n2)C1 (stereo not shown) | Protein transport protein Sec31A (SEC31A, Homo sapiens, UniProt O94979) | binding, affinity selection mass spectrometry |  |  | reference: other proteins in batch | fold enrichment | 1.01 |
| O=C(Nc1ccccc1)c1ccc2c(c1)C(=O)NC2=O | MAOB (Homo sapiens, UniProt P27338) | enzyme activity, inhibitor |  |  | reference: phthalimide IC50 over cpd IC50 | potency ratio | 41 fold |
| O=C1S/C(=C\c2ccc(Br)cc2)C(=O)N1Cc1nc2ccccc2s1 | AKR1B1 | enzyme activity, inhibitor |  |  |  | Hill slope | -0.424 |
| CCCCCCCC/C=C\CCCCCCCC(=O)NCCc1ccc(O)c(O)c1 | Trpv1 (Mus musculus, UniProt Q704Y3, D510E) | ion current, agonist, whole-cell patch clamp |  | D510E |  | Hill coefficient | 2.48 ± 0.32 |
| C[n+]1cn([C@@H]2O[C@H](COP(=O)(O)O)[C@@H](O)[C@H]2O)c2nc(N)[nH]c(=O)c21 | DCPS | binding, stopped-flow fluorescence | 10% glycerol | 20 °C |  | association rate constant | 3.08e+07 ± 2e+06 M⁻¹ s⁻¹ |
| C=CC(=O)N1CCC(COCC(=O)N2CCN(c3nc(-c4cnc(N)nc4C(F)F)nc(N4CCOC[C@@H]4C)n3)CC2)CC1 | TNNI3K (Homo sapiens, UniProt Q59H18) | KINOMEscan |  | 1 µM |  | remaining binding | 97% |
| CCN1CCC[C@H]1CNC(=O)c1c(O)c(Cl)cc(Cl)c1OC | Probable G-protein coupled receptor 173 (GPR173, Homo sapiens, UniProt Q9NS66) | β-arrestin recruitment, TANGO luminescence, item: GPR173 |  | concentration not given | reference: basal luminescence | log2 fold change | 0.453 |
| CCCCCCCCCCCCCCCCc1ccc([C@H]2CC[C@H]([N+](C)(C)CCC)CC2)cc1.[I-] | SPHK2 (Homo sapiens, UniProt Q9NRA0) | inhibitor, radiometric flash-plate | cell lysate | together with: sphingosine 5 µM |  | Ki/Km ratio | 5.8 |
| Nc1nc2c(ncn2[C@@H]2O[C@H](COP(=O)(O)O)[C@@H](O)[C@H]2O)c(=O)[nH]1 | GUK1 (Homo sapiens, UniProt Q16774) | enzyme activity, NADH-coupled |  | 2000 µM, together with: KCl 150 mM |  | reaction velocity | 0.0679 µM/s and 0.0648 µM/s and 0.0688 µM/s |
| COc1cc(NC(=O)c2cscn2)ccc1/N=N/c1ccccc1Cl | GRM3 (Homo sapiens, UniProt Q14832) | positive allosteric modulator, IP accumulation | HEK293 | 30 µM, in the dark, together with: low-dose orthosteric agonist |  | activation | -35.4% |
| O=C(COP(=O)(O)O)[C@@H](O)[C@H](O)[C@H](O)COP(=O)(O)O | Pyruvate kinase PKM (PKM, Homo sapiens, UniProt P14618) | enzyme activity, activator |  | together with: AIM |  | concentration for maximal activation | 1190 ± 208 nM |
| CCNC(=O)/C=C/c1cccc(Br)c1 | SLC6A19 (Homo sapiens, UniProt Q695T7) | inhibitor, radiolabelled uptake | CHO-BC cells | 100 µM, with Na+, together with: L-[14C]leucine, GPNA 3 mM, JPH203 3 µM |  | L-leucine uptake | 7.64 nmol/6 min/mg protein and 8.34 nmol/6 min/mg protein and 8.12 nmol/6 min/mg protein |
| COc1cc2ccc(=O)oc2cc1O | uncharacterized protein (Solanum tuberosum, UniProt M0ZZL3) | enzyme activity |  | inhibitory mode parameter |  | Hill coefficient | 2 ± 0.6 |

Some of these lines once more:
| SMILES | target | assay | system | conditions | how to read | quantity | value |
| --- | --- | --- | --- | --- | --- | --- | --- |
| COc1cc(O)c2c(c1)oc(=O)c1c3cc(O)c(O)cc3oc21 | MAL12 (Saccharomyces cerevisiae S288c, UniProt P53341) | fluorescence quenching |  | concentration not given, 304 K |  | number of binding sites | 1.1 |
| O=c1nc(SCc2cc(F)cc(C(F)(F)F)c2)nc(SCc2ccc3nc(Cl)ccc3c2)[nH]1 | TOP2A | ATPase activity |  | 15.6 µM, together with: ATP 0.75 mM |  | ATP hydrolysis rate | 2.27 µM/min and 1.62 µM/min |
| CC1=NNC(=S)NC(=O)C1/N=N/c1ccc(S(N)(=O)=O)cc1 (stereo not shown) | bovine α-glucosidase | enzyme activity, inhibitor, glucose oxidase |  | 200 µg/mL, together with: maltose |  | inhibition | 35.4% |
